Measured values pooled from the literature.
Protocols differ between the studies behind these lines. Several values in a cell are separate wells, animals, samples, runs or records.
ABL1 Q252H: Tyrosine-protein kinase ABL1 (ABL1, Homo sapiens, UniProt P00519, Q252H)
ABL1 T315I: Tyrosine-protein kinase ABL1 (ABL1, Homo sapiens, UniProt P00519, T315I)

`Cc1cnn2ncc(-c3ccnc(N(C)C)n3)c2c1` has a remaining binding of 51% and 86% (ABL1 (Homo sapiens, UniProt P00519, F317L); KINOMEscan; 1 µM).
`CN1CCN(c2ccc(Nc3nccc(-c4ccccc4)n3)cc2C(F)(F)F)CC1`: “percent of control” 87% (ABL1 (Homo sapiens, UniProt P00519, F317I); 10 µM).
`C1=C/COCc2cc(ccc2OCCN2CCCC2)Nc2nccc(n2)-c2cccc(c2)COC/1` has a remaining binding of 18% (ABL1 Q252H; 0.1 µM; reference: DMSO control).
With `O=C(NC1CCC1)c1ccc2nc(-c3cccc(NS(=O)(=O)NCCN4CCCCC4)c3)cn2c1` the remaining activity was 65% (ABL1 (Homo sapiens, UniProt P00519, M351T); enzyme activity; 10 µM).
`CN(C)c1ncc(F)c(-c2cnn3ncccc23)n1` has a remaining binding of 100% and 66% (ABL1 Q252H; KINOMEscan; 1 µM; reference: control).
For `C=CC(=O)N1CCC(COCC(=O)N2CCN(c3nc(-c4cnc(N)nc4C(F)F)nc(N4CCOC[C@@H]4C)n3)CC2)CC1`, the remaining binding was 76% (Tyrosine-protein kinase ABL1, phosphorylated (ABL1, Homo sapiens, UniProt P00519, F317L); KINOMEscan; 1 µM).
`[2H]c1cc(C)c(NC(=O)c2cnc(Nc3cc(N4CCCCC4)nc(C)n3)s2)c(Cl)c1` has an inhibition of < 30% (ABL1 T315I; 0.01 µM).
`COc1cc(-c2cncc3c2CN(C)Cc2cc(N4CCNCC4)ccc2-3)cc(OC)c1OC` gave a remaining activity of 77% (ABL1 (Homo sapiens, UniProt P00519, Y253F); kinase activity; 1 µM, with: ATP 10 µM; reference: DMSO control).
For `N[C@@H]1CCN(c2nccc(-c3cnn4ncccc34)n2)C1`, the remaining binding was 96% (ABL1 T315I; KINOMEscan; 1 µM).
With `[2H]c1cc(C)c(NC(=O)c2cnc(Nc3cc(N4CCC(O)CC4)nc(C)n3)s2)c(Cl)c1` the inhibition was > 50% (ABL1 (Homo sapiens, UniProt P00519, E255K); 0.001 µM).
